Measurements collected from several papers.
rep main protease: Replicase polyprotein 1ab, main protease (rep, Severe acute respiratory syndrome coronavirus 2, UniProt P0DTD1)

Molecule | tested on | assay | system | conditions | how to read | quantity | value
CC[C@H](C)[C@H](NC(=O)[C@H](CC(C)C)NC(=O)[C@H](Cc1c[nH]c2ccccc12)NC(=O)[C@H](CCC(N)=O)NC(=O)[C@@H](NC(=O)[C@H](Cc1ccccc1)NC(=O)[C@H](C)NC(=O)[C@H](CCCCNC(=O)COCCOCCNC(=O)COCCOCCNC(=O)CC[C@H](NC(=O)CCCCCCCCCCCCCCCCCCC(=O)O)C(=O)O)NC(=O)[C@H](CCC(N)=O)NC(=O)[C@H](C)NC(=O)[C@@H](NC(=O)[C@H](CCCCN)NC(=O)[C@H](CC(=O)O)NC(=O)[C@H](CC(C)C)NC(=O)C(C)(C)NC(=O)[C@@H](NC(=O)[C@H](CO)NC(=O)[C@H](Cc1ccc(O)cc1)NC(=O)[C@H](CC(=O)O)NC(=O)[C@H](CO)NC(=O)[C@@H](NC(=O)[C@H](Cc1ccccc1)NC(=O)[C@@H](NC(=O)CNC(=O)[C@H](CCC(=O)O)NC(=O)C(C)(C)NC(=O)[C@@H](N)Cc1ccc(O)cc1)[C@@H](C)O)[C@@H](C)O)[C@@H](C)CC)[C@@H](C)CC)C(C)C)C(=O)N[C@@H](C)C(=O)NCC(=O)NCC(=O)N1CCC[C@H]1C(=O)N[C@@H](CO)C(=O)N[C@@H](CO)C(=O)NCC(=O)N[C@@H](C)C(=O)N1CCC[C@H]1C(=O)N1CCC[C@H]1C(=O)N1CCC[C@H]1C(=O)N[C@@H](CO)C(N)=O |  |  | human, plasma | 0.5 mg, day 22, tau 168 h, geometric mean |  | AUC(0-tau) | 7200 ng·h/mL
EGALNTPKDHIGTRN | human CD4 T cells | AIM | peptide |  |  | responding donors | 14%
COc1ccccc1/C=C1\C(=O)Nc2ccccc21 | rep main protease | viral replication, mKate2 reporter | SARS-CoV-2 | 20 µM |  | inhibition | -0.268%
Cn1cnc(Cn2c(=O)[nH]/c(=N\c3cc4cn(C)nc4cc3Cl)n(Cc3cc(F)c(F)cc3F)c2=O)n1 |  |  | human, moderate renal impairment | oral, 375 mg |  | any TEAE, moderate severity | 12.5%
CCOC(=O)CN[C@@H](C(=O)N1CC[C@H]1C(=O)NCc1ccc(/C(N)=N\O)cc1)C1CCCCC1 | rep main protease | reporter gene (Gaussia luciferase), inhibitor |  | 20 µM |  | inhibition | 1.36%
Nc1ncnc2c([C@@H]3N[C@H](CO)[C@@H](O)[C@H]3O)c[nH]c12 | Zaire ebolavirus | antibody staining | HeLa, Kikwit | 6.3 µM |  | antigen-positive cells | 42.3%
QPYRVVVL |  | AIM | peptide, CD8+ T cells from PBMC, human donors | HLA-B*07:02 restricted, unit not given | relative to: positive over tested donors | frequency of responding donors | 25
